Measurements from different studies.
Each numbered part is a random draw from the data of one study; scales do not carry over between parts. Changes are numbered by the printed parent chain.

Sample 1
Target: Interferon regulatory factor 3, full length, phosphomimetic (IRF3, Homo sapiens, UniProt Q14653, residues 1-427, S386D/S396D/S398D/S402D/T404D/S405D)
Technique: protein-binding microarray
Form: double-stranded DNA, one strand shown
Sample: in vitro
Tested at: 2540 nM top
Notes: 60-bp whole probe
Together with: salmon DNA 0.4 mg/ml
Reference: random background probes
Reading: higher = stronger binding
All sequences stand within: GCCTAGCAC … GTCTTGATTCGCTTGACGCTGCTG
Residues (chain): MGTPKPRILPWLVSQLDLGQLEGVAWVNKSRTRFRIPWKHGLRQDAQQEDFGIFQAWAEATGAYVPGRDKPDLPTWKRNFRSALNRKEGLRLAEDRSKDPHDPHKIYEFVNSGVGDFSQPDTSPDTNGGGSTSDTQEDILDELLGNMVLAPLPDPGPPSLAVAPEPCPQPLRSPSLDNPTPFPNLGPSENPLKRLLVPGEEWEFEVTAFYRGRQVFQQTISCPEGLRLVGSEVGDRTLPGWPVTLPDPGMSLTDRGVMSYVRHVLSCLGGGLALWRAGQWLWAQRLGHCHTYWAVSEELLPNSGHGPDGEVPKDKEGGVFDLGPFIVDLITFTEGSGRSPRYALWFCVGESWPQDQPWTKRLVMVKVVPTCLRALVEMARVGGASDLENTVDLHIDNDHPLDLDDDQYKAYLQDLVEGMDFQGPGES
Sequence | fitted relative affinity
GAGGGTATCGACTTTCGGGACGTGCTA | 0.445 z-score
AAAACTCTTTATTTAAGCTCGTGCTAG | 0.286 z-score
GACGGTATCAGTCTCGGGACGTGCTAG | 3.8 z-score
TTCTGTATGGGCATTTTTCTAGTGCTA | 0.133 z-score
TCACCTATTTATATGAGACTGTGCTAG | 1.59 z-score
GGGATTTTGTCCTCCCCTCCCGTGCTA | -0.0846 z-score
TTAGGACTGGACTATCGGTTCGTGCTA | -0.165 z-score
TTAGGTAGCGGTATCGGTTAGTGCTAG | 2.07 z-score
GTGACAGTTTTATTTTAGTTGGTGCTA | 2.24 z-score
GACGGACTGGCTCTCGGGACGTGCTAG | -0.71 z-score
TTAGGTTTCGGGACTTGGTTAGTGCTA | 3.78 z-score
TTAGGTTTCAGGTTTCGGTTAGTGCTA | 5.22 z-score
GTCGATTTCAGTCTCGAGACGTGCTAG | 3.6 z-score
TTAGTTCTCCTTTTCCTTTAGTGCTAG | 5.16 z-score
GACGATTTCGGGACTGGAAACGTGCTA | 1.96 z-score
TCAAAAATGATGTTTTAGACTGTGCTA | -0.325 z-score
GACTGACTGCTTATCCTGACGTGCTAG | -0.465 z-score
GACGAACTGGGGTATCGGGACGTGCTA | -0.269 z-score
GACGATTTCAGTTCCTAGACGTGCTAG | 2.87 z-score
TTAGGTTTCGACTCTCGGTTAGTGCTA | 3.87 z-score
TCATCTTCAGCACTCGGACTGTGCTAG | 0.73 z-score
TTAGGTATCGGTATCGGTCAGTGCTAG | 4.56 z-score
TCACGTTACTTCCTCAAACTGTGCTAG | 0.542 z-score
GCCGGACTGGACTATCGGGACGTGCTA | 0.0581 z-score

Sample 2
Target: RNA binding protein fox-1 homolog 2, RRM domain, GST-SBP tag (RBFOX2, Homo sapiens, UniProt O43251-10, residues 100-194)
Technique: RNA Bind-n-Seq
Form: RNA
Sample: in vitro
Tested at: 365 nM
Notes: natural RNA segment, single round, ends assumed
Reference: no-protein control
Reading: higher = stronger binding
All sequences stand within: GGGAGUUCUACAGUCCGACGAUC … UGGAAUUCUCGGGUGCCAA
Target sequence (chain): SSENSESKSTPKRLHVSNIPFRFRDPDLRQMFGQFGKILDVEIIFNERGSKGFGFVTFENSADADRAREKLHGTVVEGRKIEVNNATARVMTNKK
Sequence | RBNS enrichment (R)
UGCAUGGACAAAGCAGGUAGAGGGGCACCAUCAGGGGCUCUUGCACUAUUUUCACCUCUAAAUAUUACGUACUCAGUAGUGCCCUGCUUCUAGGGCUCUGAAUACGGGCU | 0.913
UUGAGAAACACACAGACAACAACGGUGGUGAACACAUUUCCCUUUCUUGAUACCACCCAGAAAGUCUGCUACAUACCUGAGUUAGCCACUAGAUUGCCUGUCCCGACUCA | 0.997
CUUUUAGACAACUUCCUUUUUGUAGUGGUGAACCUUGCCCUUUAGUACAGUUCAAGUGAAUCUGGAUAAUUGUUCAUCUUUGCUUUAGCUUAGAUACCAUGUAGUGGUCU | 0.464
UCUCUGAAGAACCCGGUUUCCGGUGUUGAGUGAUAGACUGGUUUGAGCGAGUACUGUUUUGUGGUGACAUCUUAGGUGUUUCCUUUCUCCCAGGCUGCUGCUCUGUGGUA | 0.46
GUAGUUUGGGGACACUCUGUAUUCCUGUUUUCAUUCUAACAAAGAGGACAGAGCUAUUUUGCUAUGAUAAUCUCUGUGGUUUAUGAUAAUAAUCUGAACAGCAAACAGUG | 0.323
GGGAAAGAAUGGUAUUGUAGAAAAACCCAAGAAAUGACCACGUGGUCAGUUUCAUGGUGAUGGCUACUGUGUACUGUGUAGGUUACCUGGGUCAAGACUGGUCCAGCUUA | 1.56
AGGGUUCAUUCUCCUAGUGCCCCAAGUCCCCUCCUGCCUGGGGCUGCCCAGGGAUUGGACCUGGACCUGGCCAAGGCCUUUUGUGUGUGUCGCUGCUGCCGGGCAACGUG | 0.323
AGCUGCUGCAGGCAGGACUCCAGCGUCAGGAUGUUGCCACUUGGAGUAUGAACAAUGGGCACGGGGUUUUCAGCCACAGUUCCCUCGAGGCCAGUGUUCAGCAGGAUCAU | 0.643
GUGUGGGCCCUGGAGGGGAAGGAGAGGUGCUUCCCCCAGCCCCCAGCCAGGCUGGGGAGCAGAGCAACCAGCACAGCAUGGCUGCUGCCCUUUUAUUUAUUGGACCAGAA | 1.18
GGUAUUUUAUCACACCUUGACACCUUAUAUAUGAGCCUAUUAGGAGCUGCAGGUGGUUUCAUAGGGUAAAAUCCAAGAAAAGAGAAGGAUGUGUGGGGUUUCUAUUAGAA | 0.749
AAAACCAAGUAUCACACUUUAAUGUACAUGGGCCGCACCAUAAUGAGAUGUGAGCCUUGUGCAUGUGGGGGAGGAGGGAGAGAGAUGUACUUUUUAAAUCAUGUUCCCCC | 1.33
GGCACUUAUCUCUGGGAAAUUUGCCUCUCUUGGGACUCUCCCCCUCCCAGGCAUUUUCCAUUCCUGGAAAGGCUCCUUUGGGGUUCAGAAUCCAGAGACCAAACCCUGAC | 0.247

Sample 3
Target: Histone acetyltransferase KAT6A, winged helix 1, GST fusion (KAT6A, Homo sapiens, UniProt Q92794, residues 1-85)
Technique: protein binding microarray
Form: double-stranded DNA, one strand shown
Sample: in vitro
Tested at: not given
Notes: 8-mer, flanks averaged, mean of 2 arrays, mostly near background
Reference: not given
Reading: higher = stronger binding
Target sequence (chain): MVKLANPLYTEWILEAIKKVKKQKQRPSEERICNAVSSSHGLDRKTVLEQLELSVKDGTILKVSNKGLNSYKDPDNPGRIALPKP
Sequence | E-score
ATAAAATC | -0.00748
CGAAGGAG | -0.0204
CGACCGCC | 0.271
ACAGCTTC | -0.167
ATGCTCAG | -0.217
CCGTATCG | 0.332
ACCAGCGC | 0.196
AGTCTGCG | -0.0412
ACATCTAT | -0.0176
TAACGAAA | -0.102
AATGTTCT | -0.233
CCACTTTA | -0.209
GCACCAAA | -0.205
AGAGGAAC | -0.175
ATCCGATA | 0.072
ACGGTAGG | 0.166
CGTGTCAA | 0.088
CATTGCAA | -0.119
AATAACGG | 0.274
CATCGAGA | -0.118
AACCTTAA | -0.2
CTGCTTGA | -0.192

Sample 4
Target: RING finger protein unkempt homolog, zinc fingers 1-6, GST-SBP tag (UNK, Homo sapiens, UniProt Q9C0B0, residues 30-357)
Technique: RNA Bind-n-Seq
Form: RNA
Sample: in vitro
Tested at: not given
Notes: RNA with constant flanks, human-mouse chimeric sites, ends assumed
Reference: input RNA pool
Reading: higher = stronger binding
All sequences stand within: GGGAGUUCUACAGUCCGACGAUC … CAACAGAGGAUUGAGCAUCA
Residues (chain): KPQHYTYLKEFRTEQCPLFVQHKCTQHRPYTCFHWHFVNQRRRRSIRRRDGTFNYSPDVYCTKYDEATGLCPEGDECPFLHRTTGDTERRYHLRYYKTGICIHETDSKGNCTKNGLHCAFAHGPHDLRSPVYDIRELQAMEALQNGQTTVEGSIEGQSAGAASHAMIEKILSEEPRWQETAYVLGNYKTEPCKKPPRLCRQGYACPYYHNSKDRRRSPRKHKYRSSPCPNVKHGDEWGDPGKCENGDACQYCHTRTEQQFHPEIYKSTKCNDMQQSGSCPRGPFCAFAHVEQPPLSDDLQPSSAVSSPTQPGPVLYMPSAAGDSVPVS
Sequence | bound/input enrichment [ratio]
UUAAUCCCCUUCGUUGCUCCCCCACUUCUCAUGGUAAUAACAAAGUCUUAUAUCCCCGUCCUAGCUUUCACUCAGAUGGCUUAUGGAGCCGGUUUCCUAUCUUUCUUGGGAGGGAUCAGA | 0.297
GGUGGGGUGGUCAUUGCGCCAAUUGAGCUGCUGAUUCAUGAGUCGCCUUCAAAACUCUCGUGUAGGGUUGACAAUGUGGGGGGGUGGGGGAUCCAGCUUAUUCUUUUAUUUUCAAGUCCA | 2.1
ACACAAUAUGAGACCAACAGCAUGGACUUCAAAGUCGGGGCAGAUGGGACAGUCUUCGCCACCCGGGAGCUGCAGGUCCCCUCAGAGCAGGUGGCGUUCACGGUGACUGCAUGGGACAGC | 0.233
AAAGUGGACUAUGGCGAGUACAUGGAUAAAAACAAUGUGAGGCGGCAAGCAACAACAAUCAUAGCUGAUAACAUUAUAUUUCUGAGUGACCAGACAAAAGAGAAGGAGUAGAAAGGAUGA | 3.21
UUCAAAGAAAAGGGCAGCUGUGUCAUUUCAUAAGUAACUCUGGGGGAGGGAAAUUCUGUUCUUUUGUUUAAUUUUCCCCCAGAUAAAGCCAAAGUGUGUGUUGAAGAAGGAAGAAUGAAU | 0.178
UGUGCAUAUGAUGCUUGAGAUGGUUUUUGCAAAAGCAGAAAUCGCUGCAAGGUAAUCCUAAUAGAGACAAGCGGUAUUUUAAACCUUUGAAAUAAAUGGAUGUAACUGUACCUUGGUACA | 0.334
GGCUGCUGGUGACUGUCCUGGAGUGGCUGGAGUUCCCGCCGGAGCGCGGCCAGACUAAUUUUAGAAAAUGCCAAGUAGGAAGUUUGUCGAUGGUGAAGUGGUCAGAGGUCGAUGGCCUGG | 2.57
CUUAAUGUUAAUAUUUUUAAAGGAAGCAAGCUAAAAUGUCUGCUUUUGGUACAACACGCAUUAAUAAAAGGUUAAGUAAGUUUUGUUACUGAAGUACUAUUUAACAUCUCAGAAAAAAAC | 0.134
AGGAGGAGGUUAAAGGGUGAGAGUGGGGUGGAAGACUGUGUCAUGGCUCUGGAGACACUGUUCAGUGUCCUGCUUUCUCUUUGCAGACUGAUGGCCCCUUACACGCCUUUUCUCACUGAG | 0.0692
UGGCGCCUGCGCUCCCCACUCGUGUUUUUAAGUGUAUUUUUAUAAGAUACAUGUAUUUACAAUUGAGUUUUUGAUUAUAUAAUACUGAAUGCUACUGGAGAUUAUGAAAAAUGUUUCAAU | 0.256
UUGCCUGAGAACGAGGAUGAGCUGGAGAGCACCAACAGGCGCUACACCAAGAGGGACUGCAGCACUUUCCUCAGAACUAGUGAGACGGGCAUCGUGGAUCAGGUUAUGGUCACUCUCAAC | 0.0889

Sample 5
Target: ABI1, truncated, D143A, DHFR fusion (Arabidopsis thaliana)
Technique: DHFR PCA, deep sequencing
Sample: yeast
Notes: methotrexate growth selection, single substitutions
Together with: (+)-ABA 4.8 µM
Reference: wild-type fitted maximum
Reading: higher = stronger binding
Parent: PYL1, truncated, DHFR fusion (Arabidopsis thaliana); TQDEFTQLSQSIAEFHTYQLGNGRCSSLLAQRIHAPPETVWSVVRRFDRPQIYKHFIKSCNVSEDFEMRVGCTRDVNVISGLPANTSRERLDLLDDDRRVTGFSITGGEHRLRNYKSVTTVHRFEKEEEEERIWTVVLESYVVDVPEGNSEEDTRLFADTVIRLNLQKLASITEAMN
Variant | relative binding score
H122M | 4.4%
I172M | 36.6%
L166F | -6.5%
V136G | -2.92%
V76Y | 25%
S27C | 5.75%
G148F | 12.4%
S150G | 15.6%
K54D | -1.34%
Q2Y | 68.5%
S9D | 68.4%
E127N | 74.6%
V44N | -4.54%
R113P | 41.5%
L28Q | -0.171%
N61A | 77%
E109S | 60.9%
S140D | -8.2%
T73F | 79.1%
V142F | 9.61%
K126E | 84.8%
S9R | 76.9%
V43W | 1.42%
E128Y | 62.1%
A175F | 51.9%

For quick reference, copied from above (sample 5):
Variant | relative binding score
G148F | 12.4%
S150G | 15.6%
K54D | -1.34%
Q2Y | 68.5%
S9D | 68.4%
E127N | 74.6%
V44N | -4.54%
R113P | 41.5%
L28Q | -0.171%
N61A | 77%
E109S | 60.9%
